Experimental data of several laboratories.
Compare with care: the assays were run in different laboratories. Values joined by “and” are separate records of one study, mostly repeats; a detail may differ. ± gives the spread as reported.
MAPK8: Mitogen-activated protein kinase 8 (MAPK8, Homo sapiens, UniProt P45983)
MAPT PHF6* peptide: Microtubule-associated protein tau, PHF6* peptide (MAPT, Homo sapiens, UniProt P10636)
CASP10: Caspase-10 (CASP10, Homo sapiens, UniProt Q92851)

SMILES | target | assay | system | setting | how to read | quantity | result
CC1(C)C[C@@H](Nc2cccc(-c3sc(C(=O)O)c(OCC(=O)O)c3Cl)c2)CCN1S(=O)(=O)Cc1cccc(NC(=O)CN2CCC(c3ccc4c(c3)oc(=O)n4C3CCC(=O)NC3=O)CC2)c1 (stereo partly shown) | Tyrosine-protein phosphatase non-receptor type 1 (Mus musculus, UniProt P35821) | degrader, Western blot | B16-F10 | 0.1 µM |  | remaining protein | 45.9% and 46.2%
Cc1ccc2[nH]c(=O)cc(NCCO)c2c1 | Alpha-1A adrenergic receptor (ADRA1A, Homo sapiens, UniProt P35348) | intracellular Ca2+ mobilization, agonist | COS-7 | 500 µM | baseline: 3 µM ionomycin | agonist activity | 0.44 ± 0.19%
Cc1cn(CC(=O)N(CC(=O)N[C@H]2COC[C@@H]2N(CC(=O)NCCOCCOCC(N)=O)C(=O)Cn2cnc3c(N)ncnc32)[C@H]2COC[C@@H]2NC(=O)CN(C(=O)Cn2cnc3c(N)ncnc32)[C@H]2COC[C@@H]2NC(=O)CN(C(=O)Cn2cnc3c(=O)[nH]c(N)nc32)[C@H]2COC[C@@H]2NC(=O)CN(C(=O)Cn2cc(C)c(=O)[nH]c2=O)[C@H]2COC[C@@H]2NC(=O)CN(C(=O)Cn2cnc3c(=O)[nH]c(N)nc32)[C@H]2COC[C@@H]2NC(=O)CN(C(=O)Cn2cc(C)c(=O)[nH]c2=O)[C@H]2COC[C@@H]2NC(=O)CN(C(=O)Cn2cnc3c(N)ncnc32)[C@H]2COC[C@@H]2NC(=O)CN(C(=O)Cn2cnc3c(=O)[nH]c(N)nc32)[C@H]2COC[C@@H]2N)c(=O)[nH]c1=O | complementary DNA | duplex formation, UV melting curve fit | PBS | 1 µM, fit parameter α 0.5 |  | Tm | 76.1 ± 0.3 °C
C[n+]1cn([C@@H]2O[C@H](COP(=O)(O)OP(=O)([O-])C(F)(F)P(=O)(O)O)[C@@H](O)[C@H]2O)c2nc(N)nc(O)c21 | m7GpppX diphosphatase (DCPS, Homo sapiens, UniProt Q96C86) | substrate, HPLC |  | concentration not given, 15 min |  | hydrolysis | 2.9 ± 0.2%
CCCCCCCO[C@H]1O[C@H](CO)[C@@H](O)[C@H](O)[C@@H]1O | Type 1 fimbrin D-mannose specific adhesin, lectin domain (fimH, Escherichia coli K-12, UniProt P08191) | binding, isothermal titration calorimetry |  | 15 °C, global fit of two titrations |  | ΔG | -10.1 kcal/mol
CCCCCCCCCCCCCCCC(=O)NCCCC[C@H](NC(=O)[C@H](CCC(=O)O)NC(=O)[C@H](Cc1ccc(O)cc1)NC(=O)[C@H](CCC(=O)O)NC(=O)COCC(=O)NCCCOCCOCCOCCCNC(=O)[C@H](Cc1c[nH]c2ccccc12)NC(=O)[C@H](CCCCN)NC(=O)[C@H](C)NC(=O)[C@H](CCCCNC(=N)N)NC(=O)[C@H](CCC(N)=O)NC(=O)[C@H](Cc1c[nH]cn1)NC(=O)[C@H](CCSC)NC(=O)[C@H](CC(C)C)NC(=O)[C@H](CCC(N)=O)NC(=O)[C@@H](NC(=O)[C@H](CCC(=O)O)NC(=O)C(C)(C)NC(=O)[C@@H](NC(=O)C(C)(C)N)C(C)C)[C@@H](C)CC)C(=O)N[C@@H](CCC(=O)O)C(=O)N[C@@H](Cc1ccc(O)cc1)C(=O)N[C@@H](CCC(=O)O)C(N)=O | Parathyroid hormone/parathyroid hormone-related peptide receptor (PTH1R, Homo sapiens, UniProt Q03431) | agonist | Saos-2 with cAMP reporter | 31.6 pM, 30 min, ligand-on phase | higher = more cAMP | cAMP luminescence AUC | 4.4 a.u.
CCCCCCCCCCCCCCCC(=O)OCC(CSC[C@H](N)C(=O)N[C@@H](CO)C(=O)N[C@@H](CCCCN)C(=O)N[C@@H](CCCCN)C(=O)N[C@@H](CCCCN)C(=O)N[C@@H](CCCCN)C(=O)NCCCCCC(=O)N[C@@H](CCCCN)C(=O)N[C@@H](CC(C)C)C(=O)N[C@H](C(=O)N[C@@H](Cc1ccccc1)C(=O)N[C@@H](Cc1ccccc1)C(=O)N[C@@H](Cc1ccc2ccccc2c1)C(=O)O)C(C)C)OC(=O)CCCCCCCCCCCCCCC (stereo partly shown) | Amyloid-beta precursor protein, fibrillar amyloid-beta (APP, Homo sapiens, UniProt P05067) | TEM |  | 2.0 eq, 5 h, fibril 6, with: APP 20 µM |  | fibril diameter | 125 nm
C#CCOC(=O)[C@@]1(C)C=C(C(=O)OC(C)(C)C)C(=O)CC1 | MAPK8 | enzyme activity, D-SENSOR |  | 0.1829 µM, mean of replicates |  | normalized kinase activity | 0.97
CC[C@H](C)[C@H](NC(=O)[C@@H](NC(=O)[C@@H](NC(=O)[C@@H](NC(=O)[C@H](CCCCN)NC(=O)[C@H](CCC(=O)O)NC(=O)[C@H](C)N)C(C)C)C(C)C)C(C)C)C(=O)N[C@H](C(=O)N[C@@H](CCCCN)C(N)=O)[C@@H](C)O | MAPT PHF6* peptide | fibril formation, ThT fluorescence |  | 5-fold of peptide, 240 min, pH 7.4, with: Ac-PHF6* 25 µM, heparin | baseline: untreated | ThT fluorescence | 3 ± 1%
COC(=O)[C@@]1(C)C=C(C(=O)Nc2cccc(C(=O)Nc3ccc(Nc4nccc(-c5cccnc5)n4)c(C)c3)c2)C(=O)CC1 | MAPK8 | enzyme activity, inhibitor |  | 0.5487 µM, 6 h, unit not given, with: GSH 10 mM pre-incubation | baseline: vehicle | remaining activity | 0.0886
O=C1c2sc(-c3ccc(N4CCC(F)C4)nc3F)nc2CCN1c1cccnc1 (stereo not shown) | TAR DNA-binding protein 43, aggregated (TARDBP, Homo sapiens, UniProt Q13148) | radioligand binding | human, FTLD-TDP type A insoluble extract | 1.29 nM |  | specific binding | 0.449 nM and 0.23 nM
CN(C)Cc1cc(-c2coc3cc(O)ccc3c2=O)ccc1F | 3 beta-hydroxysteroid dehydrogenase/Delta 5-->4-isomerase type 1 (HSD3B1, Homo sapiens, UniProt P14060) | [3H]-DHEA conversion | LNCaP | 0.1 µM, normalized to protein, unit not given | baseline: vehicle | DHEA metabolism | 1.46
C=CC(=O)N1CCCC(n2c(=O)c3ncccc3n(Cc3ccc(Oc4ccccc4)cc3)c2=O)C1 (stereo not shown) | Eukaryotic peptide chain release factor GTP-binding subunit ERF3A (GSPT1, Homo sapiens, UniProt P15170) | thermal proteome profiling | cell proteome | unit not given | baseline: vehicle | melting temperature shift | -3.52
CCCCCCCC/C=C\CCCCCCCC(=O)NCCO | Transient receptor potential cation channel subfamily V member 1 (Trpv1, Mus musculus, UniProt Q704Y3, T557S) | ion current, agonist, whole-cell patch clamp |  | T557S |  | Hill coefficient | 2.61 ± 0.5
CCCCCCCCCCCCC/C=C/C=O | Exportin-2 (Homo sapiens, UniProt P55060) | competitive isoTOP-ABPP, measured: CSE1L cysteine peptide | proteome, soluble, MDA-MB-231 | 100 µM, with: iodoacetamide probe | baseline: DMSO over compound-treated, higher = stronger cysteine blockade | isoTOP-ABPP competition ratio | 1.3
CC(=O)N[C@@H](CC(=O)O)C(=O)N[C@@H](CCCC(=O)O)C(=O)N1[C@H](C(=O)N[C@@H](CC(=O)O)C(=O)COC(=O)c2c(C)cccc2C)C[C@@H]2CCCC[C@@H]21 | CASP10 | enzyme activity, inhibitor |  |  |  | kinact/KI | 263000 M⁻¹ s⁻¹
C=C1C(=O)C2(C(=O)N3CCN(c4ccc(Br)cc4)CC3)CC(=O)CC1C2 (racemic) | Tyrosine-protein phosphatase non-receptor type 11 (PTPN11, Homo sapiens, UniProt Q06124) | enzyme activity, covalent inhibitor |  | with: pNPP |  | kinact | 0.0219 s⁻¹
Cc1cc(=O)oc2cc(NC(=O)CCCCCCCC(=O)NO)ccc12 | Histone deacetylase 8 (HDAC8, Homo sapiens, UniProt Q9BY41) | ITC | Tris buffer | pH 7.5 |  | TΔS | 4.1 kcal/mol
CC(=O)N1CCC[C@H]1C(=O)N[C@H](C(=O)NCC(=O)N[C@@H](CC(=O)O)C(=O)COC(=O)c1c(C)cccc1C)C(C)(C)C | CASP10 | enzyme activity, inhibitor |  |  |  | kinact/KI | 15400 M⁻¹ s⁻¹
CC[C@H](C)[C@H](NC(=O)[C@@H](NC(=O)[C@@H](NC(=O)[C@@H](NC(=O)[C@@H](N)CCCCN)C(C)C)C(C)C)C(C)C)C(=O)N[C@H](C(N)=O)[C@@H](C)O | MAPT PHF6* peptide | fibril formation, ThT fluorescence |  | 0.1-fold of peptide, pH 7.4, with: Ac-PHF6* 25 µM, heparin | baseline: untreated | ThT fluorescence | 110 ± 4%
CC(=O)NCCCC[C@H](NC(C)=O)C(=O)N[C@@H](CCCC(=O)O)C(=O)N[C@@H](C)C(=O)N[C@@H](CC(=O)O)C(=O)COC(=O)c1c(C)cccc1C | CASP10 | enzyme activity, inhibitor |  |  |  | kinact/KI | 24500 M⁻¹ s⁻¹
CCCCCC(O)/C=C/C=O (stereo not shown) | FAS-associated death domain protein (FADD, Homo sapiens, UniProt Q13158) | competitive isoTOP-ABPP | Ramos soluble proteome | 100 µM, with: iodoacetamide probe | baseline: DMSO over compound-treated, higher = stronger cysteine blockade | isoTOP-ABPP competition ratio | 1.7
CCCC[C@H](NC(=O)[C@H](CC(=O)O)NC(C)=O)C(=O)N1[C@H](C(=O)N[C@@H](CC(=O)O)C(=O)COC(=O)c2c(C)cccc2C)C[C@@H]2CCCC[C@@H]21 | CASP10 | enzyme activity, inhibitor |  |  |  | kinact/KI | 118000 M⁻¹ s⁻¹
CCCCCC=CC=C1C(=O)C=CC1CC=CCCCC(=O)O (stereo not shown) | Enoyl-CoA delta isomerase 2 (ECI2, Homo sapiens, UniProt O75521) | competitive isoTOP-ABPP, measured: PECI cysteine peptide | proteome, soluble, MDA-MB-231 | 100 µM, with: iodoacetamide probe | baseline: DMSO over compound-treated, higher = stronger cysteine blockade | isoTOP-ABPP competition ratio | 7.4
CC(=O)N[C@@H](Cc1c[nH]c2ccccc12)C(=O)N[C@@H](CCCNC(=N)N)C(=O)N[C@@H](CO)C(=O)N[C@@H](CC(=O)O)C(=O)COC(=O)c1c(C)cccc1C | CASP10 | enzyme activity, inhibitor |  |  |  | kinact/KI | 28400 M⁻¹ s⁻¹
CC(C)Oc1cc(Cl)ccc1CNc1cc(-c2ccccc2)nc2ncnn12 | G-protein coupled receptor 3 (GPR3, Homo sapiens, UniProt P46089, Q215A) | cAMP level, cAMP GloSensor |  | 1 µM | higher = more cAMP | cAMP luminescence | 23400 a.u. and 20400 a.u. and 13300 a.u. and 14800 a.u. and 22300 a.u.
CC(=O)N[C@@H](CC(C)C)C(=O)N[C@@H](CCC(=O)O)C(=O)N[C@@H](CCC1CCCCC1)C(=O)N[C@@H](CC(=O)O)C(=O)COC(=O)c1c(C)cccc1C | Caspase-8 (CASP8, Homo sapiens, UniProt Q14790) | enzyme activity, inhibitor |  |  |  | kinact/KI | 1.34e+06 M⁻¹ s⁻¹
Cc1cc(C)cc(COc2cc3c(cc2OCc2cc(C)cc(C)c2)C2CC(O)(Cc4cn(CCOCCOCCNC(=O)CCCCC5SCC6NC(=O)NC65)nn4)CC(C)N2CC3)c1 (stereo not shown) | ATP synthase peripheral stalk subunit OSCP, mitochondrial (Homo sapiens, UniProt P48047) | biotinylated probe pull-down, measured: ATP5PO |  | 10 µM probe | baseline: heavy over light | SILAC ratio | 2.17
